Experimental data collected from several papers.
Every numbered part comes from another study and shows a few of its results, in no order. Positions count from the first letter of the parent shown.
Chain of UniProt P78368 (whole entry, looked up): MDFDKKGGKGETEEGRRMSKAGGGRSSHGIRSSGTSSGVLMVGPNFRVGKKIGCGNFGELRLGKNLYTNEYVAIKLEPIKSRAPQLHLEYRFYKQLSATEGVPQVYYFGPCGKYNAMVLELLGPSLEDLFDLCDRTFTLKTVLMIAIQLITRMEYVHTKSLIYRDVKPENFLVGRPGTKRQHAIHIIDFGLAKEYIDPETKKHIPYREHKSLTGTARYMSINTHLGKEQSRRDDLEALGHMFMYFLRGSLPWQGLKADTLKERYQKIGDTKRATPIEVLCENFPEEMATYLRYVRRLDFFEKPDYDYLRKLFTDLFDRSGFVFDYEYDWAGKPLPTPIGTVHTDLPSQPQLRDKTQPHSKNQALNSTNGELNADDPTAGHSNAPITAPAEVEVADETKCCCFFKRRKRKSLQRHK
Chain of UniProt P23458 (whole entry, looked up): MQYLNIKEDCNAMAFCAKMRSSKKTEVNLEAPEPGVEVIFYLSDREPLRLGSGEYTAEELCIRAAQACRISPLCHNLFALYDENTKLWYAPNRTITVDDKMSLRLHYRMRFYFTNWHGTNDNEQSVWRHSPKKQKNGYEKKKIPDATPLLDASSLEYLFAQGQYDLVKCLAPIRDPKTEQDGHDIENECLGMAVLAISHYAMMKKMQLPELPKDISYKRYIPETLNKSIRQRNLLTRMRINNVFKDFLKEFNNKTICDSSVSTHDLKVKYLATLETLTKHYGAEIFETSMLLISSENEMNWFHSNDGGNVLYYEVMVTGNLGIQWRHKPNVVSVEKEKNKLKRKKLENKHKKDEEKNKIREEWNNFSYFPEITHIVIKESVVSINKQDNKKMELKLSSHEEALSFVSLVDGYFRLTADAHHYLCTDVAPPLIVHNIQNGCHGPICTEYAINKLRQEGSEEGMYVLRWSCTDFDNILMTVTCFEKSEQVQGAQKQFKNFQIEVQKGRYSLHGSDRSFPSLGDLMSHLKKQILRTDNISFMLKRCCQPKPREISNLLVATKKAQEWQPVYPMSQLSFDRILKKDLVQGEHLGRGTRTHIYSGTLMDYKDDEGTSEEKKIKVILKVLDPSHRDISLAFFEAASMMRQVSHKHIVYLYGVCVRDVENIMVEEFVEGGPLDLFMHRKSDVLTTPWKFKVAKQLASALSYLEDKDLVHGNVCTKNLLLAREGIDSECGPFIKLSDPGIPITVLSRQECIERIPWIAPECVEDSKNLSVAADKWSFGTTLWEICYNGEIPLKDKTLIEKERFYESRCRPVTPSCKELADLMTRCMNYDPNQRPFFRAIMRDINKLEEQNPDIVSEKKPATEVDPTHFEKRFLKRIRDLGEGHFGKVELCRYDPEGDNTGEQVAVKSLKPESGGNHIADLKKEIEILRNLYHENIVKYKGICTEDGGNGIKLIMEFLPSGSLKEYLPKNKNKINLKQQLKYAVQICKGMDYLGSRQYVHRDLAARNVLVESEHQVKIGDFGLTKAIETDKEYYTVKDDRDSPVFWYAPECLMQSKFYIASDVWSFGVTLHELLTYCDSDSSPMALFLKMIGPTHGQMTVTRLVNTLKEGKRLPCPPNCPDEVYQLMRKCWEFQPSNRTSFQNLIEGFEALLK
Chain of UniProt P52564 (whole entry, looked up): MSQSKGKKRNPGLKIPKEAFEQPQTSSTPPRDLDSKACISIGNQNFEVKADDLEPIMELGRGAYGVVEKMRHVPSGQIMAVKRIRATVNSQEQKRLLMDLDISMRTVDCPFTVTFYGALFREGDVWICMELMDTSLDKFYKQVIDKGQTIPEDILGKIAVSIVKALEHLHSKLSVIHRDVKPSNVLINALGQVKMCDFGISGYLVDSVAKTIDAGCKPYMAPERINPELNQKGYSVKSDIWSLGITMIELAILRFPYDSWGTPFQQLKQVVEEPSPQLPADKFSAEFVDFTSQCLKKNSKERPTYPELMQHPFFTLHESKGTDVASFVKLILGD
Chain of UniProt P53355 (whole entry, looked up): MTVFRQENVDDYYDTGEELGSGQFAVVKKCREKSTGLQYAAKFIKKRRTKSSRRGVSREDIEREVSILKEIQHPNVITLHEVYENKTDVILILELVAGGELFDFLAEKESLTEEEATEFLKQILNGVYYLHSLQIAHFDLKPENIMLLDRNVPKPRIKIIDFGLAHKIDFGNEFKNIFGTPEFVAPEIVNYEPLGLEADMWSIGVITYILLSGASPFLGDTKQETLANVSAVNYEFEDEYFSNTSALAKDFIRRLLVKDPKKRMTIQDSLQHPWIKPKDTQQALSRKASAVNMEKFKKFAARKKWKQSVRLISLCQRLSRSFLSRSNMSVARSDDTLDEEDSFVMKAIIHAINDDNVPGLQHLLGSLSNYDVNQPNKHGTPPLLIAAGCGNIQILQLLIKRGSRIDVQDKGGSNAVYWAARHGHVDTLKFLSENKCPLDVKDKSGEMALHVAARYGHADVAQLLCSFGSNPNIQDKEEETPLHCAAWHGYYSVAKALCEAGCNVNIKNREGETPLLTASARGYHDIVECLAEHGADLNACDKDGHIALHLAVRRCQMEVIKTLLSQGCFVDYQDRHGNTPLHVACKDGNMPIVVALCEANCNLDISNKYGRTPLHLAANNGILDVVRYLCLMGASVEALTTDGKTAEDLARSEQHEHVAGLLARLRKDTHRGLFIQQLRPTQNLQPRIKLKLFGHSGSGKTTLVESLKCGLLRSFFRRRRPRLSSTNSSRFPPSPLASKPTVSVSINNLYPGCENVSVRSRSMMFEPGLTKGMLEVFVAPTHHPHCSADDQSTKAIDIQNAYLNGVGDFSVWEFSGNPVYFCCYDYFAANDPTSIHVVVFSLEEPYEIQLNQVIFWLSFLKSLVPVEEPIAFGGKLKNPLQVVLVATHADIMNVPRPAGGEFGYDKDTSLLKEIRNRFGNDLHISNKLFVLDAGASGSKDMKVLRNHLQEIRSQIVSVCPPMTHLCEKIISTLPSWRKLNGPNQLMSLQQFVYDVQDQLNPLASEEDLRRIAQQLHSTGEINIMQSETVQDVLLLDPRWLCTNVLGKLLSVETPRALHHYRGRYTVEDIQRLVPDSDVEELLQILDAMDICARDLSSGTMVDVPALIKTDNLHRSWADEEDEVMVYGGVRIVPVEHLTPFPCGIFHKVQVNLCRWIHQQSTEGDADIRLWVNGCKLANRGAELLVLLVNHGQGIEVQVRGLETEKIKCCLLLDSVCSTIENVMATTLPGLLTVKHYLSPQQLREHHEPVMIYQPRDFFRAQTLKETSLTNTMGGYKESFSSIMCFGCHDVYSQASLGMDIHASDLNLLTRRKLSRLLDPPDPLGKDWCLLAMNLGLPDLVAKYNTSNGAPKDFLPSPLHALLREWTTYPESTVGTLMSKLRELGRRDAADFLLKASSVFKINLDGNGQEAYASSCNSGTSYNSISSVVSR
Chain of UniProt Q9UBE8 (whole entry, looked up): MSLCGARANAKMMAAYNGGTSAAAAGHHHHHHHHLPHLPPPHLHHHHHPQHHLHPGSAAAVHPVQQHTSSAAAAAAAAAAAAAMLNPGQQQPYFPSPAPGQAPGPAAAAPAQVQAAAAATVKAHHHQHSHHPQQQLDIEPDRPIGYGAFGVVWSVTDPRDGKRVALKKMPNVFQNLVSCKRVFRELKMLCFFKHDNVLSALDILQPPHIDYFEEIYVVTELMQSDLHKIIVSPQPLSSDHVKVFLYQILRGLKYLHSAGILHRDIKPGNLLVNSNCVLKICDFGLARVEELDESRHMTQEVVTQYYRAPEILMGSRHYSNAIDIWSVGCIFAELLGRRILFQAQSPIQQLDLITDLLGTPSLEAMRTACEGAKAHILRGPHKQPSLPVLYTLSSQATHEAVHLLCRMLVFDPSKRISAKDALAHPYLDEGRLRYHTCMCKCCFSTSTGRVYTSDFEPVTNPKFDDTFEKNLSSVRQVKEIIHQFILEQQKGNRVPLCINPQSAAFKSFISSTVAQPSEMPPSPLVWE
Chain of UniProt P42338 (whole entry, looked up): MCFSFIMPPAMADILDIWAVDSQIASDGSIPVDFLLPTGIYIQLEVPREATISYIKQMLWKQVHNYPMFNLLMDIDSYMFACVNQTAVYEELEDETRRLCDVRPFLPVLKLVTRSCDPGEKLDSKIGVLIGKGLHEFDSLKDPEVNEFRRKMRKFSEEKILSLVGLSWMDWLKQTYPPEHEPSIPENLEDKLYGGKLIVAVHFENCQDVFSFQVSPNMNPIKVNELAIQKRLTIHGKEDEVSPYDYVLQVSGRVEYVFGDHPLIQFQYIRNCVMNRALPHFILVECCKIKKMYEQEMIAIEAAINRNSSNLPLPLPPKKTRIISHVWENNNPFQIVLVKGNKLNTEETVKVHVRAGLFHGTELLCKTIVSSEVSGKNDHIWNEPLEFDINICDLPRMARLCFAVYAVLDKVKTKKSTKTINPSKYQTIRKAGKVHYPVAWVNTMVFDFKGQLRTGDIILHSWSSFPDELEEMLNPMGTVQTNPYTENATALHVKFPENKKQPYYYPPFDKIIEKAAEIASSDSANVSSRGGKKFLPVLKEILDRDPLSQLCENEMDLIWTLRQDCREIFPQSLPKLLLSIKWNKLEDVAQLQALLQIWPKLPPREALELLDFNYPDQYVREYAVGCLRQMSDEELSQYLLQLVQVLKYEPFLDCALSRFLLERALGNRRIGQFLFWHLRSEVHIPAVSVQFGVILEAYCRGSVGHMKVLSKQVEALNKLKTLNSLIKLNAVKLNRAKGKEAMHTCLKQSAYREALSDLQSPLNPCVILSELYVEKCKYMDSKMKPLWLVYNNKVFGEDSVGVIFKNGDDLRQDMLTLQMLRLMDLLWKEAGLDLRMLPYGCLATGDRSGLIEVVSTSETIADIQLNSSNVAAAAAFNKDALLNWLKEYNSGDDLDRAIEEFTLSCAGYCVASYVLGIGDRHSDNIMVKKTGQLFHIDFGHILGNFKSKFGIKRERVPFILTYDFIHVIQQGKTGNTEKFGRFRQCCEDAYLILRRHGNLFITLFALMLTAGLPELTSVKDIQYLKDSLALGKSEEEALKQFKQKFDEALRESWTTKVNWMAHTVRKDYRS

Sample 1
Target: PABPC1L2, full length, GST fusion (mouse, UniProt A0ABA7IW68)
Technique: RNAcompete
Molecule type: RNA
Sample: in vitro
Tested at: 20 nM
Notes: 7-mer, probes averaged, single round
Reference: mean of 7-mers
Direction: higher = stronger binding
Measurement: 7-mer Z-score
Target sequence (chain): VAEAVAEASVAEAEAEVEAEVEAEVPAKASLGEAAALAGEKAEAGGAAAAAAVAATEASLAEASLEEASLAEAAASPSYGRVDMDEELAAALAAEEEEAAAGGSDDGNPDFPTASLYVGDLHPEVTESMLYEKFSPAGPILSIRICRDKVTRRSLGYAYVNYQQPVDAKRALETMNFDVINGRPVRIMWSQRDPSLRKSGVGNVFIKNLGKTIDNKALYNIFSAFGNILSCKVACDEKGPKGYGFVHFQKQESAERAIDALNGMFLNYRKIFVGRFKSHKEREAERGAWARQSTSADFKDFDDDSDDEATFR
Strand = GAGAGGC; result = 0.216
Strand = CCCAAUC; result = -0.369
Strand = UCCUGAG; result = -0.275
Strand = ACUCCUC; result = -0.374
Strand = ACGCUUU; result = -0.255
Strand = UUCACAG; result = -0.293
Strand = AAUAAUU; result = 0.374
Strand = AGCCCAA; result = 0.0968

Sample 2
SMILES: COc1ccc2c(c1)O[C@H](c1ccc(OC)c(OC)c1)C[C@@H]2NC(=O)C1(c2ccc3c(c2)OC(F)(F)O3)CC1
Effect on: cell-free assay
Technique: competition with immobilised ligand
Tested at: 1 µM
Measurement: remaining binding
target = Casein kinase I isoform gamma-2 (CSNK1G2, Homo sapiens, UniProt P78368); result = 95%
target = Calcium/calmodulin-dependent protein kinase type IV (CAMK4, Homo sapiens, UniProt Q16566); result = 100%
target = Death-associated protein kinase 1 (DAPK1, Homo sapiens, UniProt P53355); result = 100%
target = Serine/threonine-protein kinase NLK (NLK, Homo sapiens, UniProt Q9UBE8); result = 100%
target = cGMP-dependent protein kinase 1 (PRKG1, Homo sapiens, UniProt Q13976); result = 100%
target = Tyrosine-protein kinase JAK1, JH2 (JAK1, Homo sapiens, UniProt P23458); result = 100%
target = Dual specificity mitogen-activated protein kinase kinase 6 (MAP2K6, Homo sapiens, UniProt P52564); result = 100%
target = Phosphatidylinositol 4,5-bisphosphate 3-kinase catalytic subunit delta isoform (PIK3CD, Homo sapiens, UniProt O00329); result = 85%
target = Ephrin type-A receptor 7 (EPHA7, Homo sapiens, UniProt Q15375); result = 100%
target = Serine/threonine-protein kinase DCLK3 (DCLK3, Homo sapiens, UniProt Q9C098); result = 100%
target = SRSF protein kinase 3 (SRPK3, Homo sapiens, UniProt Q9UPE1); result = 97%
target = Phosphatidylinositol 4,5-bisphosphate 3-kinase catalytic subunit beta isoform (PIK3CB, Homo sapiens, UniProt P42338); result = 100%

Sample 3
Substitution: R163F
Target: ABI1, truncated, D143A, DHFR fusion (Arabidopsis thaliana)
Technique: DHFR PCA, deep sequencing
Sample: yeast
Notes: methotrexate growth selection, single substitutions
Reference: wild-type fitted maximum
Direction: higher = stronger binding
Measurement: relative binding score
Starting sequence: PYL1, truncated, DHFR fusion (Arabidopsis thaliana); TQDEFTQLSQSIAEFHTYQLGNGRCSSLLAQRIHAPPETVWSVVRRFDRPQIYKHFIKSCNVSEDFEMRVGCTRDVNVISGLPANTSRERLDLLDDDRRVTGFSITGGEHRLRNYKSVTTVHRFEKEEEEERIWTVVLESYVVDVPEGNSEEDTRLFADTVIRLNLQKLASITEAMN; partner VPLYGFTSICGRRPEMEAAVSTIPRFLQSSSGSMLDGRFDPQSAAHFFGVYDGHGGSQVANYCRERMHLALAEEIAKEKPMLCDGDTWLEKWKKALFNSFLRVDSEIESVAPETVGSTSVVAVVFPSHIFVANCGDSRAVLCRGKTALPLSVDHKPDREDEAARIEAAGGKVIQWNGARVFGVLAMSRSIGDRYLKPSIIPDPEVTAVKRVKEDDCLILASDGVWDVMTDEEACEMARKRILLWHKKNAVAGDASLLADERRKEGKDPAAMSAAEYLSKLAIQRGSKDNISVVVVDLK
with = (+)-ABA 0 µM; result = -38.1%
with = (+)-ABA 2500 µM; result = 56.5%
with = (+)-ABA 1.4 µM; result = -49.5%
with = (+)-ABA 0.0091 µM; result = -9.01%
with = (+)-ABA 200 µM; result = 29.1%
with = (+)-ABA 4.8 µM; result = 5.06%

Other studies, line by line
SMILES = O=C(CO)[C@@H](O)[C@H](O)[C@H](O)CO; tested on = HaCaT; conditions = 100 µM, 36 h; measurement = viability; result = 90.5%
SMILES = CC(=O)N[C@@H](Cc1c[nH]c2ccccc12)C(=O)N[C@@H](CCC(=O)C=[N+]=[N-])C(=O)OC(C)C; test = measured: 3-methylcytidine; system = mouse, EL4 tumour-bearing, EL4 tumour; conditions = dose not given; how to read = reference: vehicle; measurement = log2 fold change; result = -0.28
SMILES = Cc1c(C)n(-c2nccs2)c2ncnc(NCc3cccnc3)c12; system = human, microsomes or S9; conditions = 2 µM, 0.5 h; measurement = remaining compound; result = 50.8%

A few entries again (sample 2):
target = Death-associated protein kinase 1 (DAPK1, Homo sapiens, UniProt P53355); result = 100%
target = Serine/threonine-protein kinase NLK (NLK, Homo sapiens, UniProt Q9UBE8); result = 100%
target = cGMP-dependent protein kinase 1 (PRKG1, Homo sapiens, UniProt Q13976); result = 100%
target = Tyrosine-protein kinase JAK1, JH2 (JAK1, Homo sapiens, UniProt P23458); result = 100%
